Published values of several laboratories.
Every numbered part comes from another study and shows a few of its results, in no order. Positions count from the first letter of the parent shown.

Sample 1 — technique: protein binding microarray; molecule type: double-stranded DNA, one strand shown; matrix: in vitro; tested at: not given; relative to: not given; reading: higher = stronger binding
Target: Histone acetyltransferase KAT6A, winged helix 1, GST fusion (KAT6A, Homo sapiens, UniProt Q92794, residues 1-85)
Notes: 8-mer, flanks averaged, mean of 2 arrays, mostly near background
Residues (chain): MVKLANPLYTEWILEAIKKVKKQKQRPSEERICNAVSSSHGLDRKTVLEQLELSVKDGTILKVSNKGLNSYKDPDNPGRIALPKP
`GACACAAC` gave an E-score of -0.0642.
`ATGTTGTA` has an E-score of -0.142.
`CGTGGAAG` gave an E-score of 0.136.
With `AGTGTGCG` the E-score was 0.0176.
With `CCGTCGAG` the E-score was 0.119.
`CCGCACAC` has an E-score of 0.287.
With `CGACTAAA` the E-score was -0.168.
`ACAATTGC` has an E-score of -0.0363.
For `CTCAATTA`, the E-score was -0.0472.
For `AATTCTAA`, the E-score was -0.0427.
The E-score of `CAGTGAGG` is reported as -0.107.
With `ACCCGTAA` the E-score was 0.334.
`ATCAAGTA` has an E-score of -0.138.
For `AACCCCTA`, the E-score was -0.0967.
The E-score of `CCAATTCC` is reported as -0.102.
For `GGTACGAC`, the E-score was 0.0158.
The E-score of `GCAGAATA` is reported as 0.00898.
With `CCCGCGTC` the E-score was 0.316.
With `CAGTGGTA` the E-score was -0.16.
With `AGCGCCAC` the E-score was 0.266.
With `TATTTGAA` the E-score was -0.141.
`GCGCGGAC` has an E-score of 0.37.
`AGCACTAA` gave an E-score of -0.185.
`CTCGGTAA` has an E-score of -0.0425.
`ATCTCGAA` gave an E-score of -0.0153.

Sample 2 — target: CCNB1, cyclin fold, Cln2 fusion (human); technique: yeast growth competition, sequencing; matrix: yeast; notes: strong parent motif; relative to: not given; reading: higher = stronger binding
Parent: MASTL docking peptide (human); PMIAKNLMCELDE
Under “normalised enrichment score”, `PMIAKNDMCELDE [L7D]` is recorded as -0.286.
For `PMVAKNLMCELDE [I3V]`, “normalised enrichment score” read 2.01.
Under “normalised enrichment score”, `PMIAKNMMCELDE [L7M]` is recorded as -0.0663.
For `PYIAKNLMCELDE [M2Y]`, “normalised enrichment score” read 1.69.
Under “normalised enrichment score”, `PMFAKNLMCELDE [I3F]` is recorded as 0.44.
`PDIAKNLMCELDE [M2D]` — result for “normalised enrichment score”: 2.61.
Under “normalised enrichment score”, `PMIARNLMCELDE [K5R]` is recorded as 2.88.
`PMIAKNLNCELDE [M8N]` — result for “normalised enrichment score”: 0.322.
Under “normalised enrichment score”, `PMIAKNLMGELDE [C9G]` is recorded as 1.25.
`PMIAKNLMCQLDE [E10Q]` — result for “normalised enrichment score”: 0.861.
Under “normalised enrichment score”, `PMIAKNLMCPLDE [E10P]` is recorded as -0.0717.
`PMIAINLMCELDE [K5I]` — result for “normalised enrichment score”: 0.579.
For `PMIAKNLMTELDE [C9T]`, “normalised enrichment score” read 1.7.
`PMDAKNLMCELDE [I3D]` — result for “normalised enrichment score”: -0.00596.
`PMIVKNLMCELDE [A4V]`: “normalised enrichment score” 3.21.
Under “normalised enrichment score”, `PMIAKNLMCELFE [D12F]` is recorded as 0.743.
`PMIAQNLMCELDE [K5Q]`: “normalised enrichment score” -0.0134.

Sample 3 — technique: RNA Bind-n-Seq; molecule type: RNA; matrix: in vitro; tested at: 1 µM; notes: whole 134-nt RNA, ends assumed; with: 150 mM KCl; relative to: input library; reading: higher = stronger binding
Target: Ras GTPase-activating protein-binding protein 1, C-terminal RGG region (G3BP1, Homo sapiens, UniProt Q13283)
Sequence of UniProt Q13283 (whole entry, looked up): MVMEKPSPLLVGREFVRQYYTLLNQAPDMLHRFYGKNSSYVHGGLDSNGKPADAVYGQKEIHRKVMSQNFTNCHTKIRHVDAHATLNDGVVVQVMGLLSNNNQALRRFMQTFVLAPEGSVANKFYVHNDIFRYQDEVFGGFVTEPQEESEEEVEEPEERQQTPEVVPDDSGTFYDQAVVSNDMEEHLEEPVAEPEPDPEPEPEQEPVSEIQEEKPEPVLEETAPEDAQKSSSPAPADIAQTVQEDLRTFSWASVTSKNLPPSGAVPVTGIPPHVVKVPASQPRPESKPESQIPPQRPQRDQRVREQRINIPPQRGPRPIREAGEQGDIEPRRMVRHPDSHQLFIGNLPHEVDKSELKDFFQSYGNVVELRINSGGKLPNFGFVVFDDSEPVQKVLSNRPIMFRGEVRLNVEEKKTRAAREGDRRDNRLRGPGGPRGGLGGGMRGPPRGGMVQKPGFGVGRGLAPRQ
All sequences stand within: GGGAGUUCUACAGUCCGACGAUC … UGGAAUUCUCGGGUGUCAAGG
The log2 enrichment of `CACAGACAACACGCACCCACACAGACACAGAGGGAAGGGGAUGGGAUGGGGACAGGGUGCACAGCAGGGCGGGGUAGGACCCCAGCCCCU` is reported as -0.405.
For `CGCAGAAGUCGCGUGUCUAGGUGAGUCGCGGUGGGUCCUCGCUUGCAGUUCAGCGACCACGGUGGGUACCGUUUUUGCGAGGAUUGUUUG`, the log2 enrichment was -1.61.
With `UCAAGUCCUGUGCUACACAUCGUAUGUACCGAAUCGGAAAAGGAAAAGGAAAAGGAAAGUAUUAUGUUACGCCGUUCGGAUCUGCACUUC` the log2 enrichment was -1.84.
For `UCCCUAUUCCAGUCAUACACGUGGACCUAACUGCACCAGUAGCUUUUCUGAGAAUACUUGCUGAAAAGGAAGUUUUCUGGAAUGGGUAAG`, the log2 enrichment was -0.679.
`CUCAAGUCCUGUGCUACACAUCGUAUGUACCGAAUCGGGCCGGCCGGGCCGGGAAAGUAUUAUGUUACGCCGUUCGGAUCUGCACUUCCA` has a log2 enrichment of -1.24.
`CAAGUCCUGUGCUACACAUCGUAUGUACCGAAUCGGGGCCCGGGGCCCGGGCCCGGAAAGUAUUAUGUUACGCCGUUCGGAUCUGCACUU` has a log2 enrichment of -2.09.
`ACCAUGCAGGUGGGCAUCUUUGGGAAGUGGGGCAAGGGGGGGAUAGGGAGGGGGGUAACACUUUGGGAACAGGUGGUCCCAGCUCGUUUC` gave a log2 enrichment of 2.01.
The log2 enrichment of `CCUGUGCUACACAUCGUAUGUACCGAAUCGGGGAAAAAGGGGAAAAAGGGGAAAAAGGGGAAAGUAUUAUGUUACGCCGUUCGGAUCUGC` is reported as 0.436.

Sample 4 — technique: protein-binding microarray; molecule type: double-stranded DNA, one strand shown; matrix: in vitro; tested at: not given; reading: higher = stronger binding
Target: Protein C-ets-1 (ETS1, Homo sapiens, UniProt P14921, residues 1-441, Y397A, full length assumed)
Notes: k-mer, scored over probes, only values ≥0.25
Target sequence (chain): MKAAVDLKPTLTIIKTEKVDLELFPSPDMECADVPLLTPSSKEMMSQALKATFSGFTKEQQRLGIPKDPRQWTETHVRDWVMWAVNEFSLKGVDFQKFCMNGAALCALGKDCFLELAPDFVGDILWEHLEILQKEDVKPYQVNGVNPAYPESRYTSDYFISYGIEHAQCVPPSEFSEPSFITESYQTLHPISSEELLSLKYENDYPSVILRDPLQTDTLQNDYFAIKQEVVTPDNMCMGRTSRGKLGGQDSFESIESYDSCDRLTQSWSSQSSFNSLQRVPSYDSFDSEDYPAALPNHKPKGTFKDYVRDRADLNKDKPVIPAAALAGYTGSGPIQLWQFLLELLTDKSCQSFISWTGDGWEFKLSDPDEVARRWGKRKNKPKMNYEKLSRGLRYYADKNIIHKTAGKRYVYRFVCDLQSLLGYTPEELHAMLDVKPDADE
The E-score of `ACCCACCC` is reported as 0.318.
`CATTTCCG` has an E-score of 0.42.
With `GATTGGCA` the E-score was 0.282.
`AACACATT` has an E-score of 0.256.
For `CGCAAACC`, the E-score was 0.291.
With `CATTGTCG` the E-score was 0.29.
`CAACAATC` gave an E-score of 0.335.
`ATTGTCAC` has an E-score of 0.303.
`GCGGACAA` gave an E-score of 0.271.
`ACCGACAT` has an E-score of 0.366.
With `AGTTTCCG` the E-score was 0.294.
`ATGTTACA` has an E-score of 0.255.
The E-score of `CAATTACA` is reported as 0.25.
`TGCCGGAA` has an E-score of 0.414.
For `ATTTCCCG`, the E-score was 0.259.

Sample 5 — technique: DHFR PCA, deep sequencing; matrix: yeast; with: (+)-ABA 710 µM; relative to: wild-type fitted maximum; reading: higher = stronger binding
Target: ABI1, truncated, D143A, DHFR fusion (Arabidopsis thaliana)
Notes: methotrexate growth selection, single substitutions
Parent: PYL1, truncated, DHFR fusion (Arabidopsis thaliana); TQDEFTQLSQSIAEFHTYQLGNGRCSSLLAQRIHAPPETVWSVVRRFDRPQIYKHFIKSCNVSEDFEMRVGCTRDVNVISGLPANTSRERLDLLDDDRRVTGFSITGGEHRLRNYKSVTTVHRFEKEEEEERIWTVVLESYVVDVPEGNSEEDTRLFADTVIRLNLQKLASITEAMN; partner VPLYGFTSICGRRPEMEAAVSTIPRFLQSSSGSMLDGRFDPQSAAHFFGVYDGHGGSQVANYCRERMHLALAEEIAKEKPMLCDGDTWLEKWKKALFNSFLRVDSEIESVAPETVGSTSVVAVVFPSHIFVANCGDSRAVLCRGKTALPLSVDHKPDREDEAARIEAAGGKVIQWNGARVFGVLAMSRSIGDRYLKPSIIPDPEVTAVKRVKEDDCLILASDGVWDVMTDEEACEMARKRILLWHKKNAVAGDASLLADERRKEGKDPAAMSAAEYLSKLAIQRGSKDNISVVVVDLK
`R99L`: “relative binding score” 114%.
Under “relative binding score”, `A84D` is recorded as 31%.
For `C60P`, “relative binding score” read 22.6%.
Under “relative binding score”, `T6C` is recorded as 108%.
For `V44A`, “relative binding score” read 90.4%.
Under “relative binding score”, `N177F` is recorded as 100%.
For `R98L`, “relative binding score” read 105%.
For `N149Q`, “relative binding score” read 80.9%.
`S27A`: “relative binding score” 96%.
`L93V`: “relative binding score” 110%.
`A158P` — result for “relative binding score”: 15.8%.
`Q7K` — result for “relative binding score”: 107%.
`I162K`: “relative binding score” 48.1%.
For `V100E`, “relative binding score” read 18.6%.
`E130W`: “relative binding score” 99.3%.
Under “relative binding score”, `E38N` is recorded as 90.2%.

Sample 6 — technique: EMSA with sequencing; molecule type: double-stranded DNA, one strand shown; matrix: in vitro; tested at: 10 and 20 nM; relative to: negative control set to 0; reading: higher = stronger binding
Target: Hepatocyte nuclear factor 3-alpha (Foxa1, Mus musculus, UniProt P35582, residues 1-468, full length assumed)
Sequence of UniProt P35582 (whole entry, looked up): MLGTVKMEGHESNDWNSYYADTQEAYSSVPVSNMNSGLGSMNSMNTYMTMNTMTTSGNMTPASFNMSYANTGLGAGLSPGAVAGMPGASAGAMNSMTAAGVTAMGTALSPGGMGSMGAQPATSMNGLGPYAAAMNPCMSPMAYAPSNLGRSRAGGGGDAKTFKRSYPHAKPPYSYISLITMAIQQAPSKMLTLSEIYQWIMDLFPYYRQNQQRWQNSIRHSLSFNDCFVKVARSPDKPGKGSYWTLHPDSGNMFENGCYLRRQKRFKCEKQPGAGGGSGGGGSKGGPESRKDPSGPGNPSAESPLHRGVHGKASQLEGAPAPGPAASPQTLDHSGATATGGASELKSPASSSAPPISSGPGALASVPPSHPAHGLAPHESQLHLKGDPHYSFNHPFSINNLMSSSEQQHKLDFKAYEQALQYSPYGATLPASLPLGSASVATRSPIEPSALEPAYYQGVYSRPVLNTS
Notes: whole designed probe, mean of two concentrations, ends assumed
All sequences stand within: GTGAGCGGTGCCCATTGATGGGGAAC … TTTCACTGGGATCGTGGGGAC
For `CACAAAGCAACTAGACAAATATTGATTTTGTAGTTACTGTAAAGGATTGAACAAAAATATGAAGAGCAGAGTTTCTACTCAAATGTGATCAAAGTCAACACTGAGGATCTCACGAGATTAAAACAATGCTACTAACCTGGATAAGGTGGCATCCCCCGAAAGACTATTTTCTTACCCTTTTTTGTTTGTTTGA`, “normalised bound fraction” read 0.425 ratio.
`CAAGTTTGTGGTCCAGGAGCAACAGGTTATGCCATACAGCCTAGGTGTGTAGTAGGCTACACACCGTCTATGTTTGTGTTGTACACTCTACAATGTTTGCACAATGATGAAACCATGACTCATTCTTCTCAGAACATACCCCTGTTGTTAAGCGATACATGACTGTACTTTTTTTAAAAAGTCCAAGGATATA` — result for “normalised bound fraction”: 0.452 ratio.
For `TCTAGATTCTTTTCCTTAATCTGTAAATCCTCACAATCTTCCTGTTTTCTCTTCTCCCTATGATCCACTGTGCCCTAAATACCAATGTATTTATGTTTACAGTAAAATTACGATATCTTAGTCATCCTAACTTGGCCAAACAGAAAAATTTATATACATTTGTTATATTTATATAGCCTCTCTCATTTATCTG`, “normalised bound fraction” read 0.2 ratio.
For `CATTAGAGTCAAAGTTGTTAAGGGGAGCTAGTCATAGCTACCACGTGGCCAGGCATGTGGAAATGAATCATCACCAGACACCAGGCACACATCTATTTACTTTAAATAATGCTGACAACCTAGTTCATAGTGACACACTACTTGAGATATATAGAATAACATTATTACCCAGTAAGTATGTGAACATTCCGAT`, “normalised bound fraction” read 0.321 ratio.
Under “normalised bound fraction”, `GTCATTTATTTCATGTTGTCCTGAGATTGGATCTAAACTTTGAGCTCCTAATCATCGCTCAGATTGTGTGGCCTCGTAAGATTGTGCGTAATAAGTAATCTAGCATCTGTACACTTGTTAACTTAATGAGCTTCTGTATGTGACACTTTAAGCCTTTTTAAAAATTAAGTGCTGGGCTATGCTTGGTGTCTCA` is recorded as -0.0411 ratio.

For quick reference, copied from above (sample 2):
`PMDAKNLMCELDE [I3D]` — result for “normalised enrichment score”: -0.00596.
For `PYIAKNLMCELDE [M2Y]`, “normalised enrichment score” read 1.69.
For `PMVAKNLMCELDE [I3V]`, “normalised enrichment score” read 2.01.
Under “normalised enrichment score”, `PMIAKNLMCPLDE [E10P]` is recorded as -0.0717.
Under “normalised enrichment score”, `PMIAKNLMGELDE [C9G]` is recorded as 1.25.
`PMIAKNLNCELDE [M8N]` — result for “normalised enrichment score”: 0.322.
`PMIAQNLMCELDE [K5Q]`: “normalised enrichment score” -0.0134.
Under “normalised enrichment score”, `PMIAKNDMCELDE [L7D]` is recorded as -0.286.
`PMIVKNLMCELDE [A4V]`: “normalised enrichment score” 3.21.
`PMIAKNLMCQLDE [E10Q]` — result for “normalised enrichment score”: 0.861.
`PDIAKNLMCELDE [M2D]` — result for “normalised enrichment score”: 2.61.
